# Results from different studies.
# ± marks the error that the study gave.
# Chain of UniProt Q16816 (whole entry, looked up): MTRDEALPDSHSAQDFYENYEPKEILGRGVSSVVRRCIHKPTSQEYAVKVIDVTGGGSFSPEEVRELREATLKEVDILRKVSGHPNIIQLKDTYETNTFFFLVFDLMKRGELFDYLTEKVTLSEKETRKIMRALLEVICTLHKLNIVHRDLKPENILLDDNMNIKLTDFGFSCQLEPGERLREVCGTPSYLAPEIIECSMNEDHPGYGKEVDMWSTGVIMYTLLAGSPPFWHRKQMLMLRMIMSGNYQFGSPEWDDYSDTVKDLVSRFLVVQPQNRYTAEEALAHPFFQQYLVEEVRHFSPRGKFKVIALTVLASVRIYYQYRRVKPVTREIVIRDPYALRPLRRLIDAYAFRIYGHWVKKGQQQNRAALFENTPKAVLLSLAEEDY
# Chain of UniProt Q02779 (whole entry, looked up): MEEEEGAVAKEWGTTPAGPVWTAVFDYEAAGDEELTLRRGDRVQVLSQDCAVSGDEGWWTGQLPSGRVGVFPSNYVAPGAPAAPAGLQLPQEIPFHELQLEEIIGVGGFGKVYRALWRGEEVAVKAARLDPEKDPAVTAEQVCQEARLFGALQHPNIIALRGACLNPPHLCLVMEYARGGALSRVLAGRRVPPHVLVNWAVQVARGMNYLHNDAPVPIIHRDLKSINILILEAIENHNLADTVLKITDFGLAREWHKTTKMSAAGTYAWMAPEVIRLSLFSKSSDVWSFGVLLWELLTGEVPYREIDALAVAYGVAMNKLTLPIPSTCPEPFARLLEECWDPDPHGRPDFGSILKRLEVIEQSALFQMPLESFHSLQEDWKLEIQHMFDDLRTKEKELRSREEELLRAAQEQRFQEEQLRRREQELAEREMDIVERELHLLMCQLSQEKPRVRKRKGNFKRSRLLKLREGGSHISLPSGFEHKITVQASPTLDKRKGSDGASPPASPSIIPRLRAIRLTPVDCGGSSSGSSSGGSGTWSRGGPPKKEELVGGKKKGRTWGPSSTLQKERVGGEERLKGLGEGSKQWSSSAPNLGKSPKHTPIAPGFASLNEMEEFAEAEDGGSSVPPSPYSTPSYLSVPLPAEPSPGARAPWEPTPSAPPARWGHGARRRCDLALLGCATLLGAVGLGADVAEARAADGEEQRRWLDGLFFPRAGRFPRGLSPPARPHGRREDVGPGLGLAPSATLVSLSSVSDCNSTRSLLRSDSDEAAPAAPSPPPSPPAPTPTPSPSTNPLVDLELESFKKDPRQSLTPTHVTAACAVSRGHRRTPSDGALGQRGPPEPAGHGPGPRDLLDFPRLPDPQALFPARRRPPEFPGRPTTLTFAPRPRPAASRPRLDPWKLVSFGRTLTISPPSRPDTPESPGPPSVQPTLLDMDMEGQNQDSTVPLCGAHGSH
Compound,tested on,assay,system,setting,scale,quantity,value
CCCCCCCCCCCCCCCC(=O)N[C@@H](CCC(=O)NCCOCCOCCC(=O)NCCOCCOCCC(=O)NCCCC[C@H](NC(=O)[C@H](CC(=O)O)NC(=O)[C@H](CC(C)C)NC(=O)[C@H](Cc1ccc(O)cc1)NC(=O)[C@H](CCCCN)NC(=O)[C@H](CO)NC(=O)[C@H](Cc1ccc(O)cc1)NC(=O)[C@H](CC(=O)O)NC(=O)[C@H](CO)NC(=O)[C@@H](NC(=O)[C@H](Cc1ccccc1)NC(=O)[C@@H](NC(=O)CNC(=O)[C@H](CCC(N)=O)NC(=O)[C@@H](CO)NC(=O)[C@@H](N)Cc1c[nH]cn1)[C@@H](C)O)[C@@H](C)O)C(=O)N[C@@H](CCCNC(=N)N)C(=O)N[C@@H](CCCNC(=N)N)C(=O)N[C@@H](C)C(=O)N[C@@H](CCC(N)=O)C(=O)N[C@@H](CC(=O)O)C(=O)N[C@@H](Cc1ccccc1)C(=O)N[C@H](C(=O)N[C@@H](CCC(N)=O)C(=O)N[C@@H](Cc1c[nH]c2ccccc12)C(=O)N[C@@H](CC(C)C)C(=O)N[C@@H](CC(C)C)C(=O)N[C@@H](CC(N)=O)C(=O)N[C@H](C(=O)NCC(=O)NCC(=O)N1CCC[C@H]1C(=O)N[C@@H](CO)C(=O)N[C@@H](CO)C(=O)NCC(=O)N[C@@H](C)C(=O)N1CCC[C@H]1C(=O)N1CCC[C@H]1C(=O)N1CCC[C@H]1C(=O)N[C@@H](CO)C(N)=O)[C@@H](C)O)C(C)C)C(=O)O,,,"Sprague-Dawley rat, female","subcutaneous, 100 µg/kg once daily, 14 days",,creatinine,27.6 ± 3 µmol/L
CSCC[C@H](N)C(=O)N[C@@H](C)C(=O)N[C@@H](Cc1c[nH]c2ccccc12)C(=O)N[C@@H](Cc1c[nH]cn1)C(=O)N[C@@H](CC(=O)O)C(=O)N[C@@H](CC(=O)O)C(=O)N[C@@H](CCC(=O)O)C(=O)N[C@@H](CCC(=O)O)C(=O)N[C@@H](Cc1ccccc1)C(=O)N[C@@H](C)C(=O)N[C@@H](CCCNC(=N)N)C(=O)N[C@@H](CCCNC(=N)N)C(=O)N[C@@H](CCCNC(=N)N)C(=O)N[C@@H](CCCNC(=N)N)C(=O)NCCCCCC(=O)NCCCCC(NC(=O)CCCCCNC(=O)[C@H](CCCNC(=N)N)NC(=O)[C@H](CCCNC(=N)N)NC(=O)[C@H](CCCNC(=N)N)NC(=O)[C@H](CCCNC(=N)N)NC(=O)[C@H](C)NC(=O)[C@H](Cc1ccccc1)NC(=O)[C@H](CCC(=O)O)NC(=O)[C@H](CCC(=O)O)NC(=O)[C@H](CC(=O)O)NC(=O)[C@H](CC(=O)O)NC(=O)[C@H](Cc1c[nH]cn1)NC(=O)[C@H](Cc1c[nH]c2ccccc12)NC(=O)[C@H](C)NC(=O)[C@@H](N)CCSC)C(=O)NCCCCC(NC(=O)C(CCCCNC(=O)CCCCCNC(=O)[C@H](CCCNC(=N)N)NC(=O)[C@H](CCCNC(=N)N)NC(=O)[C@H](CCCNC(=N)N)NC(=O)[C@H](CCCNC(=N)N)NC(=O)[C@H](C)NC(=O)[C@H](Cc1ccccc1)NC(=O)[C@H](CCC(=O)O)NC(=O)[C@H](CCC(=O)O)NC(=O)[C@H](CC(=O)O)NC(=O)[C@H](CC(=O)O)NC(=O)[C@H](Cc1c[nH]cn1)NC(=O)[C@H](Cc1c[nH]c2ccccc12)NC(=O)[C@H](C)NC(=O)[C@@H](N)CCSC)NC(=O)CCCCCNC(=O)[C@H](CCCNC(=N)N)NC(=O)[C@H](CCCNC(=N)N)NC(=O)[C@H](CCCNC(=N)N)NC(=O)[C@H](CCCNC(=N)N)NC(=O)[C@H](C)NC(=O)[C@H](Cc1ccccc1)NC(=O)[C@H](CCC(=O)O)NC(=O)[C@H](CCC(=O)O)NC(=O)[C@H](CC(=O)O)NC(=O)[C@H](CC(=O)O)NC(=O)[C@H](Cc1c[nH]cn1)NC(=O)[C@H](Cc1c[nH]c2ccccc12)NC(=O)[C@H](C)NC(=O)[C@@H](N)CCSC)C(N)=O (stereo partly drawn),,,"C57BL/6 mouse female, skull","dose not given, 6 h",baseline: total,mean tissue distribution,26.3%
O=C1NC2(CC2)COc2ncc(F)cc2[C@H]2COCCN2c2ccn3ncc1c3n2,,,"Sprague-Dawley rat, male, testes","oral, 2.5 mg/kg/day, 4 weeks, end of treatment",,organ-to-body weight ratio,0.751 ± 0.106%
COc1ccccc1-c1n[nH]c2nc(NC3CCN(C(=O)Cc4ccc(F)cc4F)CC3)ncc12,,"bead binding, competition bead pull-down, item: LINJ.26.1960",Leishmania donovani extract,10 µM,baseline: vehicle,relative abundance,1.13
CC(=O)NCCCC[C@@H]1NC(=O)[C@H](Cc2c[nH]c3c(C)cccc23)NC(=O)[C@H]([C@@H](C)O)NC(=O)[C@H](CC(N)=O)NC(=O)[C@@H](NC(C)=O)C(C)(C)SSC(C)(C)[C@@H](C(=O)N[C@@H](Cc2ccc(OCCN)cc2)C(=O)N[C@@H](Cc2ccc3ccccc3c2)C(=O)NC2(C(=O)N[C@@H](CCC(=O)O)C(=O)N[C@@H](CC(N)=O)C(=O)N[C@@H](Cc3cccnc3)C(=O)N(C)CC(N)=O)CCOCC2)NC1=O,,,"rat, blood","0.13 µM, 2 h",,blood to plasma ratio,0.84 ± 0.03
C=CC(=O)Nc1cccc(Cn2ncc3cnc(Nc4cnn(CCOC)c4)nc32)c1,,,"Sprague-Dawley rat female, serum","oral, 180 mg/kg, day 28, 28-day subacute toxicity",,serum cholesterol,1.51 ± 0.28 mM
CC(C)=CCC/C(C)=C/CCn1cc(CC(P(=O)(O)O)P(=O)(O)O)nn1,,equilibrium dialysis,mouse plasma,"1 µg/mL, 4 h",,fraction unbound,0.035
CC[C@H](C)[C@H](NC(=O)[C@H](C)NC(=O)[C@H](CCCCN)NC(=O)[C@H](CCCCN)NC(=O)[C@@H](N)CCCNC(=N)N)C(=O)N[C@@H](CCCCN)C(=O)N[C@@H](CC(C)C)C(=O)N[C@H](C(=O)N[C@@H](CCCCN)C(=O)N[C@@H](CCCCN)C(=O)N[C@@H](CC(C)C)C(=O)N[C@H](C(=O)N[C@@H](CCCCN)C(=O)N[C@@H](CCCCN)C(=O)N[C@@H](CC(C)C)C(=O)N[C@@H](CCCCN)C(=O)N[C@@H](CCCCN)C(=O)N[C@@H](C)C(=O)N[C@@H](CC(C)C)C(=O)N[C@@H](CCCCN)C(=O)O)C(C)C)C(C)C,,,human red blood cells,"64 mg/L, 1 h, mean of replicates",,hemolysis,8.08%
C#Cc1c(F)ccc2cc(O)cc(-c3ncc4c(N5CC6CCC(C5)N6C(=O)OC(C)OC(=O)c5ccccc5)nc(OC[C@@]56CCCN5C[C@H](F)C6)nc4c3F)c12 (stereo partly drawn),,metabolic stability,"mouse, liver microsomes","1 µM, pH 7.4",,half-life,38.4 s
CC(C)(C)C(=O)OCOP(=O)(OCOC(=O)C(C)(C)C)C1CCCN(O)C1=O (stereo not drawn),CAKI-1,,,,,log LC50,> -4 log M
CS(C)(=O)=Nc1ccc(-c2ccc(-c3nc4cc(O[C@@H]5CO[C@H]6[C@@H]5OC[C@H]6O)[nH]c4cc3F)cc2)cc1,"Serine/threonine-protein kinase mTOR, with FKBP12 (MTOR, Homo sapiens, UniProt P42345)",kinase activity,,10 µM,,inhibition,0%
CC(C)[C@H]1NC(=O)C[C@H]2/C=C/CCSSC[C@@H](NC1=O)C(=O)N[C@H](Cc1cccc3ccccc13)C(=O)NCC(=O)O2,"MAP3K10 (Homo sapiens, UniProt Q02779)","enzyme activity, inhibitor",,10 µM,,inhibition,-0.8%
CN1Cc2cc(Cl)ccc2-n2c(nnc2C2CCN(c3cccc([18F])n3)CC2)C1,,,"C57BL/6 mouse male, pancreas","intravenous, dose not given, 5 min, with: blocking agent 10 mg/kg",,tissue uptake,7.64 ± 1.34 %ID/g
COCC1CN(C2CCN(c3cc(OC)c(Nc4ncc(Br)c(Nc5ccc6c(c5P(C)(C)=O)OCCO6)n4)cc3C)CC2)C1,,phase 1 trial,"human, advanced EGFR-mutant NSCLC","oral, dose not given",,treatment-related AEs leading to death,0%
Cc1nc2cccc(OCC(C)(C)C(=O)NC(C)C)c2c(N)c1C(=O)[O-].[Na+],Salmonella typhimurium,,TA98,"0.051 mg per plate, without S9, preincubation",,revertant colonies per plate,22 ± 1
CC(C)[C@@H]1NC(=O)CNC(=O)[C@H](CC(N)=O)NC(=O)[C@H](CCCNC(=N)N)NC(=O)[C@H](Cc2ccc(O)cc2)NC(=O)[C@H](C(C)C)NC(=O)[C@@H](NC(=O)[C@@H](NC(=O)[C@H](CC(N)=O)NC(=O)[C@H](Cc2c[nH]c3ccccc23)NC(=O)[C@H](C)NC(=O)[C@H](Cc2ccccc2)NC(=O)CNC(=O)[C@H](CCCCN)NC(=O)[C@H](Cc2ccccc2)NC(=O)[C@H](Cc2ccccc2)NC(=O)[C@H](CCCCN)NC(=O)OCC2c3ccccc3-c3ccccc32)C(C)C)CSSC[C@@H](C(=O)N[C@@H](Cc2c[nH]cn2)C(=O)N[C@@H](CCCNC(=N)N)C(=O)N[C@@H](CCCNC(=N)N)C(=O)N[C@@H](C)C(=O)N[C@@H](CC(N)=O)C(N)=O)NC(=O)[C@H](C(C)C)NC(=O)[C@H](CCCNC(=N)N)NC1=O,,,"ICR mouse, blood","intramammary, 5 mg/kg, day 5, 3 d dosing",,MCH,13.1 ± 0.17 pg
C=Cc1c(C)c2cc3nc(c(CC(=O)[O-])c4[n-]c(cc5nc(cc1[n-]2)C(C)=C5CC)c(C)c4C(=O)[O-])C(CCC(=O)[O-])C3C.[Cu+2].[Na+].[Na+].[Na+] (stereo not drawn),,,"Wistar rat, female","oral, 1000 mg/kg daily, 28 days",,blood urea nitrogen,24 ± 9.12 mg/dL
CCCC[C@H]1C(=O)N(C)[C@@H](CCCC)C(=O)N[C@@H](CCCNC(=O)CN2CCN(CC(=O)O)CCN(CC(=O)O)CCN(CC(=O)O)CC2)C(=O)N[C@H](C(=O)NCC(N)=O)CSCC(=O)N[C@@H](Cc2ccc(O)cc2)C(=O)N(C)[C@@H](C)C(=O)N[C@@H](CC(N)=O)C(=O)N2CCC[C@H]2C(=O)N[C@@H](Cc2c[nH]cn2)C(=O)N[C@@H](CC(C)C)C(=O)N(C)CC(=O)N[C@@H](Cc2c[nH]c3ccccc23)C(=O)N[C@@H](CO)C(=O)N[C@@H](Cc2c[nH]c3ccccc23)C(=O)N1C [gallium-68 labelled],,,"NOD/SCID mice, CHO-hPD-L1 xenograft, intestine","60 min, with: blocking agent 50 µg co-injected",,tissue uptake,5.03 ± 0.21 %ID/g
COc1ccccc1-c1n[nH]c2nc(N[C@H]3CC[C@H](NS(=O)(=O)CC(C)C)CC3)ncc12,,"bead binding, competition bead pull-down, item: LMJF.05.0030",Leishmania donovani extract,10 µM,baseline: vehicle,relative abundance,1.29
CC(C)[C@H]1NC(=O)[C@H](Cc2ccccc2)NC(=O)[C@@H](C(C)C)NC(=O)[C@@H](C)NC(=O)[C@H](CO)NC(=O)[C@@H](Cc2c(-c3ccc(-c4ccc5ccccc5c4)cc3)[nH]c3ccccc23)NC(=O)[C@@H](CO)NC1=O,,,"Sprague Dawley rat, plasma","oral, 20 mg/kg",,plasma concentration,not detected
CN(C)[C@H]1C[C@@]23CC[C@@]4(O2)C(=CC[C@]2(C)[C@@H](c5ccc6ccncc6c5)CC[C@H]24)C=C3[C@@H](O)[C@@H]1O,"PHKG1 (Homo sapiens, UniProt Q16816)","probe labelling, inhibitor, KiNativ ATP probe MS",native lysate,1 µM,,inhibition,9.8%

# Repeated from above:
Compound,tested on,assay,system,setting,scale,quantity,value
COc1ccccc1-c1n[nH]c2nc(N[C@H]3CC[C@H](NS(=O)(=O)CC(C)C)CC3)ncc12,,"bead binding, competition bead pull-down, item: LMJF.05.0030",Leishmania donovani extract,10 µM,baseline: vehicle,relative abundance,1.29
CCCC[C@H]1C(=O)N(C)[C@@H](CCCC)C(=O)N[C@@H](CCCNC(=O)CN2CCN(CC(=O)O)CCN(CC(=O)O)CCN(CC(=O)O)CC2)C(=O)N[C@H](C(=O)NCC(N)=O)CSCC(=O)N[C@@H](Cc2ccc(O)cc2)C(=O)N(C)[C@@H](C)C(=O)N[C@@H](CC(N)=O)C(=O)N2CCC[C@H]2C(=O)N[C@@H](Cc2c[nH]cn2)C(=O)N[C@@H](CC(C)C)C(=O)N(C)CC(=O)N[C@@H](Cc2c[nH]c3ccccc23)C(=O)N[C@@H](CO)C(=O)N[C@@H](Cc2c[nH]c3ccccc23)C(=O)N1C [gallium-68 labelled],,,"NOD/SCID mice, CHO-hPD-L1 xenograft, intestine","60 min, with: blocking agent 50 µg co-injected",,tissue uptake,5.03 ± 0.21 %ID/g
CCCCCCCCCCCCCCCC(=O)N[C@@H](CCC(=O)NCCOCCOCCC(=O)NCCOCCOCCC(=O)NCCCC[C@H](NC(=O)[C@H](CC(=O)O)NC(=O)[C@H](CC(C)C)NC(=O)[C@H](Cc1ccc(O)cc1)NC(=O)[C@H](CCCCN)NC(=O)[C@H](CO)NC(=O)[C@H](Cc1ccc(O)cc1)NC(=O)[C@H](CC(=O)O)NC(=O)[C@H](CO)NC(=O)[C@@H](NC(=O)[C@H](Cc1ccccc1)NC(=O)[C@@H](NC(=O)CNC(=O)[C@H](CCC(N)=O)NC(=O)[C@@H](CO)NC(=O)[C@@H](N)Cc1c[nH]cn1)[C@@H](C)O)[C@@H](C)O)C(=O)N[C@@H](CCCNC(=N)N)C(=O)N[C@@H](CCCNC(=N)N)C(=O)N[C@@H](C)C(=O)N[C@@H](CCC(N)=O)C(=O)N[C@@H](CC(=O)O)C(=O)N[C@@H](Cc1ccccc1)C(=O)N[C@H](C(=O)N[C@@H](CCC(N)=O)C(=O)N[C@@H](Cc1c[nH]c2ccccc12)C(=O)N[C@@H](CC(C)C)C(=O)N[C@@H](CC(C)C)C(=O)N[C@@H](CC(N)=O)C(=O)N[C@H](C(=O)NCC(=O)NCC(=O)N1CCC[C@H]1C(=O)N[C@@H](CO)C(=O)N[C@@H](CO)C(=O)NCC(=O)N[C@@H](C)C(=O)N1CCC[C@H]1C(=O)N1CCC[C@H]1C(=O)N1CCC[C@H]1C(=O)N[C@@H](CO)C(N)=O)[C@@H](C)O)C(C)C)C(=O)O,,,"Sprague-Dawley rat, female","subcutaneous, 100 µg/kg once daily, 14 days",,creatinine,27.6 ± 3 µmol/L
